Measurements of several laboratories.
Every numbered part comes from another study and shows a few of its results, in no order. Substitutions count along the parent as printed.
UniProt O75914, sequence (whole entry, looked up): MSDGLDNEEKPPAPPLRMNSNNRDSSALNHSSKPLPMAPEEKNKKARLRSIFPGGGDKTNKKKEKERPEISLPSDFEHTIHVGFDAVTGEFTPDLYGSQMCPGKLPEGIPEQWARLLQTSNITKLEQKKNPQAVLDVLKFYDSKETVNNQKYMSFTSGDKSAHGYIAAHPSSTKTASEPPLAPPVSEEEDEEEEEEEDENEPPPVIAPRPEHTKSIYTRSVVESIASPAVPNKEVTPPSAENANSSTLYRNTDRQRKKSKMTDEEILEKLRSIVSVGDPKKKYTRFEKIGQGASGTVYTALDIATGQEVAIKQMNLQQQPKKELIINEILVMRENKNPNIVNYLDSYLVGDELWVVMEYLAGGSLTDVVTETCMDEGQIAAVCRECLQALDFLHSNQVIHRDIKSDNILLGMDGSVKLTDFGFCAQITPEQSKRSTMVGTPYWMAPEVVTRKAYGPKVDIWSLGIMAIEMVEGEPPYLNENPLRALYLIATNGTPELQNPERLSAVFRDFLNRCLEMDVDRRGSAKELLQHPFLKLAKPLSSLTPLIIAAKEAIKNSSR
UniProt P00519, sequence (whole entry, unmodified, looked up): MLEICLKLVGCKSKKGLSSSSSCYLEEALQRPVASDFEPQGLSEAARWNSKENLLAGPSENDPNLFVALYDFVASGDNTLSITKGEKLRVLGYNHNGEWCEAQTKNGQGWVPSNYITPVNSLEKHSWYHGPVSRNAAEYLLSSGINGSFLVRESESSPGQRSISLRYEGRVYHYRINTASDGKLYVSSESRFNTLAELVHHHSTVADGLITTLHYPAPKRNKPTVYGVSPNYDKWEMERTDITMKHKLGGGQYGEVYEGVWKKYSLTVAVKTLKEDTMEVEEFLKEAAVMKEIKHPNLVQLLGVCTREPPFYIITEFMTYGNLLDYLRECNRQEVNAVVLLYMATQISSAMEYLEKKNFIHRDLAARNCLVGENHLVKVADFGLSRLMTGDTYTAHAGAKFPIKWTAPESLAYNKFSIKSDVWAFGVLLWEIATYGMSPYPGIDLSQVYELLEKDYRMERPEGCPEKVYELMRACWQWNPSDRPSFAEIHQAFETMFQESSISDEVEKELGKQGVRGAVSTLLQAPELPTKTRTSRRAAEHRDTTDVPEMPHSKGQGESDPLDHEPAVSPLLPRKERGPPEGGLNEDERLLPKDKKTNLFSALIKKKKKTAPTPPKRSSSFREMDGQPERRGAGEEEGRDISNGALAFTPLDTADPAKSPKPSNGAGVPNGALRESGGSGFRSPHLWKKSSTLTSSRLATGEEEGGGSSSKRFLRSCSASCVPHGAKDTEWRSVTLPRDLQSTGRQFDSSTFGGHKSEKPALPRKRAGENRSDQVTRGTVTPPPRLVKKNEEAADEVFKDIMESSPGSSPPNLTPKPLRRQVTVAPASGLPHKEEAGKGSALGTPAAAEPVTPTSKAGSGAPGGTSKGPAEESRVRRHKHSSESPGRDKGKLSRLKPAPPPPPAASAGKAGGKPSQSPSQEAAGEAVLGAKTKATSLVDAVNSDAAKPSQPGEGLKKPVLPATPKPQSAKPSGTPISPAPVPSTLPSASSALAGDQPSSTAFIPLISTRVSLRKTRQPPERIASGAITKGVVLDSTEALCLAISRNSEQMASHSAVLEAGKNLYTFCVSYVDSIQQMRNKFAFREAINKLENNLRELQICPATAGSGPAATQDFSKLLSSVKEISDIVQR
UniProt Q16832, sequence (whole entry, looked up): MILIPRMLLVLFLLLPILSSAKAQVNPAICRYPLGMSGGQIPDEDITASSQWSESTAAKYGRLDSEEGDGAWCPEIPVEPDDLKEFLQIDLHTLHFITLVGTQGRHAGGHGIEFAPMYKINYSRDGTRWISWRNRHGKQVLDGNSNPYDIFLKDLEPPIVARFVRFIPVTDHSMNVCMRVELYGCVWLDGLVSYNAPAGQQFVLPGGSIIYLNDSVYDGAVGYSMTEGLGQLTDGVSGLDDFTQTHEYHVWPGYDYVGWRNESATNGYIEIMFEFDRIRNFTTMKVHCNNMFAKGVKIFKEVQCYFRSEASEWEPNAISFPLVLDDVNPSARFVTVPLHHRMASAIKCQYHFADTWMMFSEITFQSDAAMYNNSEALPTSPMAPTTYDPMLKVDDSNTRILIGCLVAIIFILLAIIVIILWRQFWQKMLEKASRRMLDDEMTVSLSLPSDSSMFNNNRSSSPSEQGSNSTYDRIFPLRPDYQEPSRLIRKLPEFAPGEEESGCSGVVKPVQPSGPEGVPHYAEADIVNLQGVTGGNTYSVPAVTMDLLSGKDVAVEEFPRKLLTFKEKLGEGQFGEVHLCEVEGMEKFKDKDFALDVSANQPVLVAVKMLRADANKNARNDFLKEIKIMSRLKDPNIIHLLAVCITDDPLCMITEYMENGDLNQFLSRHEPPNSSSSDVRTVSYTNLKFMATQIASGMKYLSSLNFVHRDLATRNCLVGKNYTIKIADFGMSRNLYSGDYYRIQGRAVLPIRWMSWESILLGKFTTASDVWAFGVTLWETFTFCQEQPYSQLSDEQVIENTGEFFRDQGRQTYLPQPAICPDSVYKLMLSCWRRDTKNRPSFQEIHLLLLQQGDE
UniProt P10721, sequence (whole entry, unmodified, looked up): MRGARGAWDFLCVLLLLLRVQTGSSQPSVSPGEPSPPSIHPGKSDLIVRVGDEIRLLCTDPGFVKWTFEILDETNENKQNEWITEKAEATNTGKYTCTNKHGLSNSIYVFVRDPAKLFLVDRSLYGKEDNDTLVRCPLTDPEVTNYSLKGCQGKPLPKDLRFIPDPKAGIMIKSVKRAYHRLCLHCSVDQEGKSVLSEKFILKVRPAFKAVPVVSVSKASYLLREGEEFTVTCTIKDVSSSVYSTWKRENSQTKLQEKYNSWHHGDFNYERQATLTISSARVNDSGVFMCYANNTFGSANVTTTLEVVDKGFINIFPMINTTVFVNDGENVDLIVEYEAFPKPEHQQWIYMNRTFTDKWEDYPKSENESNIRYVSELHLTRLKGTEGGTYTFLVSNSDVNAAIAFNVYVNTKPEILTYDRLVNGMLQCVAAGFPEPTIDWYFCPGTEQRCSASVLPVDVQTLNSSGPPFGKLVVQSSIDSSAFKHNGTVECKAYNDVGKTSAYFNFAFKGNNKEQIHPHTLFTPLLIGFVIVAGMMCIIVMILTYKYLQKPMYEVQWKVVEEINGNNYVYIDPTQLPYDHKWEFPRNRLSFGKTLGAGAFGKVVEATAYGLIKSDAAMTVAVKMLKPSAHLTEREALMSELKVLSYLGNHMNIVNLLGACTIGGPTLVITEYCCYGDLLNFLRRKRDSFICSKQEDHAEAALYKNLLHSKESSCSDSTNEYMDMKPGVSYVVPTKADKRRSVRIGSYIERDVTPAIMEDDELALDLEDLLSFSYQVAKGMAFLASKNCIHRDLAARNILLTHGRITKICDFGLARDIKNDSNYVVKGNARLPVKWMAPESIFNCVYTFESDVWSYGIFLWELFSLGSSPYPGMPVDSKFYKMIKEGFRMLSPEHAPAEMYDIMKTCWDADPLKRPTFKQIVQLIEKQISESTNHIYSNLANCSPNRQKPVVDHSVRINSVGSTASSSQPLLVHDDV
UniProt P29320, sequence (whole entry, looked up): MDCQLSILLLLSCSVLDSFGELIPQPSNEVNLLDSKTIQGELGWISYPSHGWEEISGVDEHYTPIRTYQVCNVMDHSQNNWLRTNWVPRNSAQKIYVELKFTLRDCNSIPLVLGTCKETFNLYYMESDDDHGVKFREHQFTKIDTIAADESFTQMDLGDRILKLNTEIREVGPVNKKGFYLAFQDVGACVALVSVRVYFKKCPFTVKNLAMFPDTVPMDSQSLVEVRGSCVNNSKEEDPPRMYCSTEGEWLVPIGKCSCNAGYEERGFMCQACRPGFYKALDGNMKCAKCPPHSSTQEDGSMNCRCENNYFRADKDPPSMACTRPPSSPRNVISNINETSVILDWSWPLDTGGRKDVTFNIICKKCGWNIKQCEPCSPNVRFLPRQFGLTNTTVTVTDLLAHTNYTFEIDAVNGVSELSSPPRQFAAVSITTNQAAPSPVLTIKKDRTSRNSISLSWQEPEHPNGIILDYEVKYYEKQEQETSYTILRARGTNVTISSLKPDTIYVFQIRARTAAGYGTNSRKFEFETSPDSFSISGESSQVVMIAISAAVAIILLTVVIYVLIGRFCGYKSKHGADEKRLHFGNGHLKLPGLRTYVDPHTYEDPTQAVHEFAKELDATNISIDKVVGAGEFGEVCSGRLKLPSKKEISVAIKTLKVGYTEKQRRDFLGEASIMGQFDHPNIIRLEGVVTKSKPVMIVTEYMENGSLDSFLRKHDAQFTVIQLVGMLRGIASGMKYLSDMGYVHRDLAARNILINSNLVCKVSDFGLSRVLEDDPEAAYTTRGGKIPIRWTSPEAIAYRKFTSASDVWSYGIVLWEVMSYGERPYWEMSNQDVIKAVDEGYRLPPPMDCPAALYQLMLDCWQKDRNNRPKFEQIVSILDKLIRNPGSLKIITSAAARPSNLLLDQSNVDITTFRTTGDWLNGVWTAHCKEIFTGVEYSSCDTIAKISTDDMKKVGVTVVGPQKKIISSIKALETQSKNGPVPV
UniProt Q9HAZ1, sequence (whole entry, looked up): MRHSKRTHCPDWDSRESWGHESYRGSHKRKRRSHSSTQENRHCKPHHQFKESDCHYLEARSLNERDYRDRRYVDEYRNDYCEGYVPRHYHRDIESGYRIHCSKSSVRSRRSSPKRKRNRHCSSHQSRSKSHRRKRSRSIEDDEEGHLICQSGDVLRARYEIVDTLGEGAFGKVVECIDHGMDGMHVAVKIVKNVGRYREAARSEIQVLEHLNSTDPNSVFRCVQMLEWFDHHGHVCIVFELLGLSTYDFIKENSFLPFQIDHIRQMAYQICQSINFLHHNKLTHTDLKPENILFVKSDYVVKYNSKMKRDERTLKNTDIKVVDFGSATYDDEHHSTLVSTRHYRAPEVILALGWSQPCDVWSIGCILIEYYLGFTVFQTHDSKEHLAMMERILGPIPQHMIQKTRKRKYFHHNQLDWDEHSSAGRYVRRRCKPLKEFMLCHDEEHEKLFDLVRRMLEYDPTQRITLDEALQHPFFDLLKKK

Block 1
Compound: CCC(=O)N[C@H]1CC[C@@H](C(=O)N(C)c2ccc(-c3nc4ccccc4o3)cc2)C1
Effect on: cell-free assay
Method: competition with immobilised ligand
Tested at: 1 µM
Endpoint: remaining binding
target = Mast/stem cell growth factor receptor Kit (KIT, Homo sapiens, UniProt P10721, L576P); value = 61%
target = Death-associated protein kinase 2 (DAPK2, Homo sapiens, UniProt Q9UIK4); value = 100%
target = Ephrin type-A receptor 3 (EPHA3, Homo sapiens, UniProt P29320); value = 100%
target = Tyrosine-protein kinase ABL1, phosphorylated (ABL1, Homo sapiens, UniProt P00519, F317L); value = 72%

Block 2
Target: PABPC1L2, full length, GST fusion (mouse, UniProt A0ABA7IW68)
Method: RNAcompete
Molecule type: RNA
Medium: in vitro
Tested at: 20 nM
Notes: 7-mer, probes averaged, single round
Baseline: mean of 7-mers
Direction: higher = stronger binding
Endpoint: 7-mer Z-score
Residues (chain): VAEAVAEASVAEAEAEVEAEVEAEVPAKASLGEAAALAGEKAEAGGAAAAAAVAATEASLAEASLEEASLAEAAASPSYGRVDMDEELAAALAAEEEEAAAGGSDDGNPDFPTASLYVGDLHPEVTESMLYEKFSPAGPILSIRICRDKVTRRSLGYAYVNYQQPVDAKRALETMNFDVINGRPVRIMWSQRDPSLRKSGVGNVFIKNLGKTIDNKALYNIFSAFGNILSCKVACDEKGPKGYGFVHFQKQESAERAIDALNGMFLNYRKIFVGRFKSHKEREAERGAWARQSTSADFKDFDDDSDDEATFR
Sequence = CACCGCC; value = -0.206
Sequence = CAAUGGC; value = 0.102
Sequence = AAGGUGG; value = 0.358
Sequence = ACCCUAU; value = -0.277
Sequence = GGGCGCU; value = 0.124
Sequence = GGAUGAG; value = 0.0297
Sequence = CAAAUUU; value = 0.356
Sequence = AGGUUAG; value = 0.00979

Block 3
Target: CCNB2, cyclin fold, Cln2 fusion (human)
Method: yeast growth competition, sequencing
Medium: yeast
Notes: weak parent motif
Baseline: not given
Direction: higher = stronger binding
Endpoint: normalised enrichment score
Starting sequence: INSM1 docking peptide (human); PKAIRKLHFEDEV
Variant = PKAIRKLHCEDEV [F9C]; value = 0.0277
Variant = PKAIRKLHFDDEV [E10D]; value = -0.0558
Variant = PKAIRKLHNEDEV [F9N]; value = 0.16
Variant = PKAIWKLHFEDEV [R5W]; value = -0.204
Variant = PKAGRKLHFEDEV [I4G]; value = -0.042
Variant = PKAIRRLHFEDEV [K6R]; value = 0.204
Variant = PKVIRKLHFEDEV [A3V]; value = 1.68
Variant = PKAIRKLWFEDEV [H8W]; value = 0.00977

Block 4
Structure (SMILES): CCc1[nH]c(-c2ccc(OC)cc2)nc1-c1ccncc1
Effect on: enzyme activity
Mode: inhibitor
Tested at: 0.5 µM
Baseline: control
Endpoint: remaining activity
target = Cyclin-dependent kinase 1, with cyclin A (CDK1, Homo sapiens, UniProt P06493); value = 91.8%
target = Discoidin domain-containing receptor 2 (DDR2, Homo sapiens, UniProt Q16832); value = 96.1%
target = Serine/threonine-protein kinase PLK3 (PLK3, Homo sapiens, UniProt Q9H4B4); value = 96.9%
target = Cyclin-dependent kinase 9, with cyclin K (CDK9, Homo sapiens, UniProt P50750); value = 97.9%
target = Dual specificity protein kinase CLK4 (CLK4, Homo sapiens, UniProt Q9HAZ1); value = 99.3%
target = Dual specificity mitogen-activated protein kinase kinase 1 (MAP2K1, Homo sapiens, UniProt Q02750); value = 97.8%
target = Ribosomal protein S6 kinase alpha-4 (RPS6KA4, Homo sapiens, UniProt O75676); value = 98.6%
target = Calcium/calmodulin-dependent protein kinase type IV (CAMK4, Homo sapiens, UniProt Q16566); value = 97.5%
target = Dual specificity protein kinase CLK3 (CLK3, Homo sapiens, UniProt P49761); value = 95.6%
target = Serine/threonine-protein kinase MARK2 (MARK2, Homo sapiens, UniProt Q7KZI7); value = 99.4%
target = Hepatocyte growth factor receptor (MET, Homo sapiens, UniProt P08581); value = 97.7%
target = Misshapen-like kinase 1 (MINK1, Homo sapiens, UniProt Q8N4C8); value = 103%
target = Calcium/calmodulin-dependent protein kinase type 1B (PNCK, Homo sapiens, UniProt Q6P2M8); value = 102%
target = Serine/threonine-protein kinase PAK 3 (PAK3, Homo sapiens, UniProt O75914); value = 103%

Some of these lines once more (block 1):
target = Mast/stem cell growth factor receptor Kit (KIT, Homo sapiens, UniProt P10721, L576P); value = 61%
target = Death-associated protein kinase 2 (DAPK2, Homo sapiens, UniProt Q9UIK4); value = 100%
target = Ephrin type-A receptor 3 (EPHA3, Homo sapiens, UniProt P29320); value = 100%
target = Tyrosine-protein kinase ABL1, phosphorylated (ABL1, Homo sapiens, UniProt P00519, F317L); value = 72%
